Measured values gathered from unrelated publications.
Each numbered part is a random draw from the data of one study; scales do not carry over between parts. Changes are numbered by the printed parent chain.

Block 1
Target: Prothrombin, mature alpha-thrombin (F2, Homo sapiens, UniProt P00734)
Method: aptamer microarray, sandwich
Molecule type: DNA with 2'F-ANA
Matrix: in vitro
Concentration: 200 nM
Setting: whole 15-mer aptamer, many near background
With: Cy3 exosite-II aptamer, 400 nM
Direction: higher = stronger binding
Sequence: GGTTGGTGTGGTTGG
Modification	mean fluorescence intensity [a.u.]
2'F-ANA at 2 4 7 9 11 12 15	440
2'F-ANA at 1 2 3 4 7 8 10 13 14 15	86.7
2'F-ANA at 8 9 10 11 12 14	106
2'F-ANA at 5 8 10 13 15	43.7
2'F-ANA at 3 4 5 6 8 10 11 12 15	58.3
2'F-ANA at 2 4 5 8 11 12 14 15	47.8
2'F-ANA at 1 4 5 6 7 8 9 11 13 15	65.3
2'F-ANA at 1 2 3 4 10 12 15	78.3
2'F-ANA at 2 3 5 7 10 14	46
2'F-ANA at 1 3 5 6 7 8 9 10 11 13 14 15	51.1
2'F-ANA at 2 3 4 9 10 14 15	180
2'F-ANA at 2 3 4 7 8 9 10 13 14	201
2'F-ANA at 1 3 4 7 8 9 11 12 13 15	263
2'F-ANA at 1 6 7 8 10 11 13 14	50.4
2'F-ANA at 1 4 5 6 12 13 14	45.5
2'F-ANA at 1 2 4 5 6 11 14	45
2'F-ANA at 1 2 4 5 6 7 11 12 14 15	50.4
2'F-ANA at 1 5 6 8 10 11 14 15	51.7
2'F-ANA at 3 7 8 11 12 13 14	1040
2'F-ANA at 1 5 6 9 12 14 15	49.9
2'F-ANA at 7 9 10 11 12	192
2'F-ANA at 6 7 10 11 12 15	178

Block 2
Target: RING finger protein unkempt homolog, zinc fingers 1-6, SBP tag (UNK, Homo sapiens, UniProt Q9C0B0, residues 30-357)
Chain of UniProt Q9C0B0 (30-357, looked up): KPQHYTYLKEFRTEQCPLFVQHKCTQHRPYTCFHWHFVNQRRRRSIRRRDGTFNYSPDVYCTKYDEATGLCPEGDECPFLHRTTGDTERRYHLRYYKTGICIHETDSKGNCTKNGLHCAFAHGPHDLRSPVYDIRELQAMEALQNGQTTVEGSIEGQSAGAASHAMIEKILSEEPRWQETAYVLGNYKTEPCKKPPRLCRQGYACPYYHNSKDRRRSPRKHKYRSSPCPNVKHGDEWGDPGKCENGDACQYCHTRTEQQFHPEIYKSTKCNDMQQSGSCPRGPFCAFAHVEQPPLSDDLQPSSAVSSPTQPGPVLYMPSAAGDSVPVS
Method: RNA Bind-n-Seq
Molecule type: RNA
Matrix: in vitro
Concentration: 100 nM
Setting: RNA with constant flanks, vertebrate orthologous sites, ends assumed
Reference: input RNA pool
Direction: higher = stronger binding
Constant ends, left off below: GGGAGUUCUACAGUCCGACGAUC … CAACAGAGGAUUGAGCAUCA
Sequence	bound/input enrichment [ratio]
AUGAAACUUGGAAGGAUAGUGUAUGAGGCUGGGGUCAAAAAGAAGGUACACUCAAGAGGAGGUAUUAUUAAUAGUCAGGUGUCUAAGAGUAGAAAUGAAAGUCAUUGCAACUCAAGAAAC	0.531
AAUUGAAUAAAAAUGUUUCCACUGGGUUUUGCCUGUAAGAAAAAAAUGUACCCGAGCCCAUAGAGCUUUUUAAUAAUAGCACUAACCAAUGCCUUUUUAGAUGUAUUUUUGAUGUAUAUA	1.4
AGCAAUUAGGGUGGGCCAUUCCUCUACAUUUCCCACGAGGAGAAAAGCCCAAAUAGAUGACACAUAUUUCACACAUCUGAUAAUACUACUCUCUUUUUGUUUUCUGUUUUUACGUAUGCG	0.688
ACGCUUCGAUGUUAAAUUUGACAUAAAGAGCAGCUGAUCAUAAGCACCAUUUUAUCCUCCUAGCCAUUUAAAAGUUUAAACAAAACAAAAAAAACCUACUAGUCUUGAACAAACUGUCAU	0.744
AGCUUUGGACCUUGGAGCUGAACCAGGGAGCCAGCAAAGUAAAGCAGACGUGUAAAACUAUACCACAUGCAGCUGCACAAAAGCACCCUCACCAGCAGCUGUGUUAAACUAUUUAUAAAG	0.247
UUCAGGCACAACUGACUGGUUCACAGCAUUCCUUACAUAGUUAUCUAUCAAAUGCAAAUGUAGUUAAUUUUCAGGAAACAAGCAGGCAGUCAUCUUUAUCCUGUAGCCCAGUUGGAGAGU	1.57
CUCUCUUAGCGAUAGUAUUCCAUCUGUAGCAGAUUCCCACUCGAGUCACUUUUCUGAGUUCAGUUGCUCAGAUAUGGAGAGUAUGAAAACUUCCUGUAGCCACGGUUCCAGCGACUAUCA	0.486
GAGUGCUUAAGCCGCCAACAGUUAGAAGAUGCUAUUUAUUUGUGUCUGUAAGUUUGUACAUAGUAAUGCCAGCCUUGUUGCUGAAUUUUUUAUUUGGGGGGAGAUGAGUUUGAAUUUUGU	2.38

Block 3
Target: RNA binding protein fox-1 homolog 2, RRM domain, GST-SBP tag (RBFOX2, Homo sapiens, UniProt O43251-10, residues 100-194)
Method: RNA Bind-n-Seq
Molecule type: RNA
Matrix: in vitro
Concentration: 365 nM
Setting: natural RNA segment, single round, ends assumed
Reference: no-protein control
Direction: higher = stronger binding
Constant ends, left off below: GGGAGUUCUACAGUCCGACGAUC … UGGAAUUCUCGGGUGCCAA
Target sequence (chain): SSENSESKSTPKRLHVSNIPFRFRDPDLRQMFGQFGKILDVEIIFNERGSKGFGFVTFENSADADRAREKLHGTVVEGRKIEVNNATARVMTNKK
Sequence	RBNS enrichment (R)
GGGAGACAGAGGAAGGAAGAUGGAGAUUGGAAGUGAGCAAAUGUGAAAAAUUCCUCUUUGAACCUGGCAGAUGCAGCUAGGCUCUGCAGUGCUGUUUGGAGACUGUGAGA	1.4
CGCUCGGUGGAGGGACGCGUGCGGCGGGACGGUGCCUACGGGUACUUGCAGCUGUGUCCCAUGUGGCAUCCCAGAGCUGCGCCCUGCUGGUCUCUGUGAGCGCCACGCUG	0.274
AUAGCUUUUCACCAUGUGGUGUUUACCAGCUGUUACUCUGUAUUUUAAAAAGCCAGAGAUUUCUUCUGUCUAAACUGUUUCUAUAGCAUUUUCUAAACAAAAAAAAUGGU	1.74
UGGGGCCUGGAGUCUGGUGCUGUUCCCCAGCCAGCCUGGCUGCAGACCUCUCUGGCUGAUACCGCUCUUCUUCUUUAAUUGGACUUCAUAUCAAGCCUCUGCCUUGGUUU	0.438
CAGGUAUUUUUCCCUUUGCAUUUUUAAAAAUACGUAUUUCUAAUUUGUUUGCAUAUUUAAUUUUGUCAAAGCUGAGAAAUGCUCAUGAGUUGAAUUUAUAAAUGUCAUUU	1.25
CUGUGCACUACAGUCCAGAGGAAGGUAUCCACUGUGCAGCUGAAACAGGAGGCCACAAACAACCUAACAAAACCUAGGAGACCCAGCCAAGUAAAGUCCCGAGGACUGGU	0.443
GAGCCAGACUUGUAUAUUCUAUUUUACAACUACAAAGGCCUCCUAAGUAUUGUACCUUCAGCGUGCAGUAUCUGUGAACUGAUUUCUCCAAGUGUGAGCUUUCUGAGCAA	0.284
UUGUAUGUUUUGUUAUGUCGAGGUAUUUCUAAAGAGAAGAUUUUAUAUAAUUAUAAGAGGAAGUGUAGUGAAUUGUACAGCUGUUGUAAUAAUGACCUAUUUCUAUAAAA	3.14

Block 4
Target: CCND3, cyclin fold, Cln2 fusion (human)
Method: yeast growth competition, sequencing
Matrix: yeast
Setting: weak parent motif
Reference: not given
Direction: higher = stronger binding
Parent: SLBP docking peptide (human); ARYKRKLLINDFG; partner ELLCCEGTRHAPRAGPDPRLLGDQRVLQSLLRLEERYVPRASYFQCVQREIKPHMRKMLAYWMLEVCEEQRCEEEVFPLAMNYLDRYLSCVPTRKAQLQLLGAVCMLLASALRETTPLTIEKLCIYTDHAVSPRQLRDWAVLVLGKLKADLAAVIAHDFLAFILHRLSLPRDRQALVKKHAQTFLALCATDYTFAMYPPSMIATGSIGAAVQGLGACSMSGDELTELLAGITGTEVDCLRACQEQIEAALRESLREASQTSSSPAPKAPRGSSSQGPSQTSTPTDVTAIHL
Substitution	normalised enrichment score
G13I	0.224
A1T	0.214
F12M	0.14
G13V	0.261
R2N	0.216
R5A L7A	0.292
K6E	0.148
R2P	0.174
R2D	0.21
K4S	0.116
R5P	0.0883
G13C	0.139
R2E	0.193
L8D	0.0978
L8G	0.087
R2I	0.208
K4H	0.216

Excerpt of the above (block 1):
Modification	mean fluorescence intensity [a.u.]
2'F-ANA at 2 4 7 9 11 12 15	440
2'F-ANA at 1 2 3 4 10 12 15	78.3
2'F-ANA at 1 5 6 9 12 14 15	49.9
2'F-ANA at 5 8 10 13 15	43.7
